Published values pooled from the literature.
± marks the error that the study gave.
Fibroin-modulator-binding protein-1: Fibroin-modulator-binding protein-1 99-193 (Bombyx mori, UniProt Q5FBS0)
SPT15/TOA1/TOA2/SUA7 1-240; 1-286; 1-122; 1-345: SPT15/TOA1/TOA2/SUA7 1-240; 1-286; 1-122; 1-345 (Saccharomyces cerevisiae)

The Kd of `DNA 1 CACTGGCCGTCTTACGGTCGCTCTGCTCGACG / DNA 2 CGACCGTAAGACGGCCAGTG (dsDNA; 20 bp, 3' 12 nt overhang)` is reported as 19 ± 2.6 nM (RECQL 63-592 K514A (Bos taurus, UniProt A0JN36); fluorescence anisotropy; double-stranded DNA; added: Mg2+ 3 mM).
The Kd of `GAGAGAGAGAGA (dsDNA)` is reported as 4680 ± 499 nM (Fibroin-modulator-binding protein-1; ITC; double-stranded DNA, one strand shown).
`GGGAGAACUUCGACCAGAAGUUCCUGCCAAUUGAGCACAUUACGCAAAAAAAUUCCCUGCCUAUGUGCGCAUACAUGGAUCCUC (ssRNA; 2'-fluoro pyrimidines)` gave a relative binding of 29.5 RU (integrin alphaV/beta3 31-992/27-718 (Homo sapiens); SPR; RNA; added: MnCl2 1 mM; higher = more binding).
For `DNA 1 TGGGTGGGTAGGGTGGGTAGGGGAGGAT / DNA 2 ATCCTCCCCTA (DNA; intramolecular parallel G4, 5' overhang, 11-bp duplex)`, the Kd was 4.3 ± 0.6 nM (REV1 330-833 R704Q (Homo sapiens, UniProt Q9UBZ9); FP; folded DNA; KCl 100 mM).
`GGGAGAACUUCGACCAGAAGUUCCGGCCUACGCAACUUUUUAUCCCCUGCCUGGCCGUAAUUAUGUGCGCAUACAUGGAUCCUC (ssRNA; 2'-fluoro pyrimidines)` has a relative binding of 35.8 RU (integrin alphaV/beta3 31-992/27-718 (Homo sapiens); SPR; RNA; added: MnCl2 1 mM; higher = more binding).
For `TCCTGAAGAGGCGCCCTAGCTTGGTCCTATCGTCGTCAAGTCAATCGGTCC (dsDNA; 5'-amino-C6 primer)`, the Kd was 2.06 ± 0.59 nM (SPT15/TOA1/TOA2/SUA7 1-240; 1-286; 1-122; 1-345; array; double-stranded DNA, one strand shown; TBP:TFIIA:TFIIB ternary complex).
With `GGGAGAACUUCGACCAGAAGACACAUAACACGCCUUUGGAGCGAUACCUCCAUCAACGAUUAUGUGCGCAUACAUGGAUCCUC (ssRNA; 2'-fluoro pyrimidines)` the relative binding was 239 RU (integrin alphaV/beta3 31-992/27-718 (Homo sapiens); SPR; RNA; added: MnCl2 1 mM; higher = more binding).
For `GTAGGTAGGTAG (dsDNA)`, the Kd was 8790 nM (Fibroin-modulator-binding protein-1; ITC; double-stranded DNA, one strand shown).
`AACAAGTACAACACACTCTCAAATAATTATGCGCTTCAAGTCAATCGGTCC (dsDNA; 5'-amino-C6 primer)` gave a Kd of 12.7 ± 8.68 nM (SPT15/TOA1/TOA2/SUA7 1-240; 1-286; 1-122; 1-345; array; double-stranded DNA, one strand shown; TBP:TFIIA:TFIIB ternary complex).
With `GGAGGGAGGGAG (dsDNA)` the Kd was 4750 nM (Fibroin-modulator-binding protein-1; ITC; double-stranded DNA, one strand shown).
`GGGAGAACUUCGACCAGAAGACAAAUAUGCAACAUGUUACGCCAAAAGUUCCCCGGCCUAUAUGUGCGCAUACAUGGAUCCUC (ssRNA; 2'-fluoro pyrimidines)` has a relative binding of 62.6 RU (integrin alphaV/beta3 31-992/27-718 (Homo sapiens); SPR; RNA; added: MnCl2 1 mM; higher = more binding).
`GSGAGRETEV` has a binding intensity of 0.219 (human MAGI1-3/6 PDZ construct (MBP fusion); automated holdup; peptide, crude extract; concentration not given, corrected by standard peak, unit not given; baseline: biotin control resin, higher = stronger binding).
With `colistin` the MIC was over 64 µg/mL (Enterobacter cloacae; clinical isolate RKI 287/13).
The binding intensity of `GGWVEKETYY` is reported as 0.0402 (human SCRIB PDZ3-4 tandem (MBP fusion); automated holdup; peptide, crude extract; concentration not given, uncorrected, unit not given; baseline: biotin control resin, higher = stronger binding).
With `GAGCGAGCGAGC (dsDNA)` the Kd was 10600 nM (Fibroin-modulator-binding protein-1; ITC; double-stranded DNA, one strand shown).
`GTTCCTGAAGGGGGGGCGGGGTGGGTATAAAAGGGTCAAGTCAATCGGTCC (dsDNA; 5'-amino-C6 primer)` has a Kd of 3.29 ± 1.51 nM (SPT15/TOA1/TOA2/SUA7 1-240; 1-286; 1-122; 1-345; array; double-stranded DNA, one strand shown; TBP:TFIIA:TFIIB ternary complex).
`GGGAGAACUUCGACCAGAAGGACUACCAUCGAACGUACAUUACGCUACUCUCUACCAGCUAUGUGCGCAUACAUGGAUCCUC (ssRNA; 2'-fluoro pyrimidines)` has a relative binding of -4.2 RU (integrin alphaV/beta3 31-992/27-718 (Homo sapiens); SPR; RNA; added: MnCl2 1 mM; higher = more binding).
With `CATGCATGCATG (dsDNA)` the Kd was 3970 ± 375 nM (Fibroin-modulator-binding protein-1; ITC; double-stranded DNA, one strand shown).

Repeated from above:
`GGGAGAACUUCGACCAGAAGUUCCGGCCUACGCAACUUUUUAUCCCCUGCCUGGCCGUAAUUAUGUGCGCAUACAUGGAUCCUC (ssRNA; 2'-fluoro pyrimidines)` has a relative binding of 35.8 RU (integrin alphaV/beta3 31-992/27-718 (Homo sapiens); SPR; RNA; added: MnCl2 1 mM; higher = more binding).
For `TCCTGAAGAGGCGCCCTAGCTTGGTCCTATCGTCGTCAAGTCAATCGGTCC (dsDNA; 5'-amino-C6 primer)`, the Kd was 2.06 ± 0.59 nM (SPT15/TOA1/TOA2/SUA7 1-240; 1-286; 1-122; 1-345; array; double-stranded DNA, one strand shown; TBP:TFIIA:TFIIB ternary complex).
With `GGGAGAACUUCGACCAGAAGACACAUAACACGCCUUUGGAGCGAUACCUCCAUCAACGAUUAUGUGCGCAUACAUGGAUCCUC (ssRNA; 2'-fluoro pyrimidines)` the relative binding was 239 RU (integrin alphaV/beta3 31-992/27-718 (Homo sapiens); SPR; RNA; added: MnCl2 1 mM; higher = more binding).
